Measurements of several laboratories.
BRSK2: Serine/threonine-protein kinase BRSK2 (BRSK2, Homo sapiens, UniProt Q8IWQ3)
Sequence of UniProt Q8IWQ3 (whole entry, unmodified, looked up): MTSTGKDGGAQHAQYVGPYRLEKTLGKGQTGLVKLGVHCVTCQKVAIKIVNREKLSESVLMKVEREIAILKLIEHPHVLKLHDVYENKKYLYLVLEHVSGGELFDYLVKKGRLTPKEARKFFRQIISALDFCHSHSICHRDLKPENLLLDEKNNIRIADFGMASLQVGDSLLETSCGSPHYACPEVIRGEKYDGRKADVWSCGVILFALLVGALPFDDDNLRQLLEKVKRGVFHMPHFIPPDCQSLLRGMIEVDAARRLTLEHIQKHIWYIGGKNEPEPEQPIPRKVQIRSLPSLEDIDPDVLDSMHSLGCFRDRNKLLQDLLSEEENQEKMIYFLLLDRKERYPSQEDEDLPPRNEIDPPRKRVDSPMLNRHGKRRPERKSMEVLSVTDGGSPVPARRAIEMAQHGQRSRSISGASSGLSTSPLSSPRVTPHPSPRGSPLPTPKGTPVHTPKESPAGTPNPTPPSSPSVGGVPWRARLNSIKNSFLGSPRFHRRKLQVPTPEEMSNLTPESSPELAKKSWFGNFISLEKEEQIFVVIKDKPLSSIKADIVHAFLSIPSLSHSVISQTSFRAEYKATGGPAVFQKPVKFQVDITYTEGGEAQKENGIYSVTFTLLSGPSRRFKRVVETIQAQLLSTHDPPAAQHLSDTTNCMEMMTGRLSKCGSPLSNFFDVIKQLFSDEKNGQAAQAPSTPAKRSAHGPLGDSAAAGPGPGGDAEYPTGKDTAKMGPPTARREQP

| SMILES | tested on | assay | system | setting | how to read | measurement | result |
| --- | --- | --- | --- | --- | --- | --- | --- |
| CCN1CCN(Cc2ccc(C(=O)Nc3ccc(C)c(NCc4cnc5[nH]ccc5c4OC)c3)cc2C(F)(F)F)CC1 | BRSK2 | binding, competition with immobilised ligand | – | 1 µM | – | remaining binding | 62% |
| Cc1ccc(C)c(-c2ccc3nc(NC(=O)C4CCCCC4)nn3c2)c1 | BRSK2 | enzyme activity, Dundee kinase panel | – | 10 µM | – | remaining activity | 76% |
| COc1ccc(O)cc1-c1c[nH]c2ncc(-c3cncc(C(=O)N(C)C)c3)cc12 | BRSK2 | binding, competition with immobilised ligand | – | 0.2 µM | – | inhibition | -4.25% |
| Nc1nc(Nc2ccccc2)sc1C(=O)c1ccccc1 | BRSK2 | enzyme activity, inhibitor | – | 10 µM | – | remaining activity | 42% |
| Cc1cccc(O[C@H]2CCC[C@@H](C(C)CNCc3ccncc3)C2)c1 (relative stereo) | BRSK2 | enzyme activity, inhibitor | – | 1 µM | – | inhibition | 0% |
| COc1cc(Nc2nc(C)cc(-c3cnn4nc(OC)ccc34)n2)cc(C(F)(F)F)c1 | BRSK2 | inhibitor | – | 1 µM | reference: control | remaining activity | 94% |
| O=C(Cc1ccc(OCc2ccccc2)cc1)NC1(C(=O)O)CCN(C(=O)c2ccc(-c3cccc(Cl)c3)cc2)CC1 | BRSK2 | enzyme activity, inhibitor | – | 10 µM | – | activity vs control | 174% |
| CNC(=O)C1CCN(c2cc(C)c(F)cc2NC(=O)c2ccc(-c3cc(O)ccc3C)c(C)c2)CC1 | BRSK2 | binding, competition with immobilised ligand | – | 1 µM | – | remaining binding | 94% |
| COc1ccc(NC(=O)Nc2ccc3c(c2)C(=O)N(C(C)CO)CC(C)C(CN(C)Cc2ccc4c(c2)OCO4)O3)cc1 (centres unmarked) | BRSK2 | kinase activity, KinaseProfiler | – | 0.03 µM, species human | reference: control | remaining activity | 107% |
| C=CC(=O)Nc1cccc(-c2cnc3[nH]cc(C(=O)NC(C)(C)C)c3n2)c1 | BRSK2 | enzyme activity, inhibitor | – | 0.1 µM | – | inhibition | 36% |
| Fc1ccccc1N1CCN(C2CCCN(Cc3cccc(C(F)(F)F)c3)C2)CC1 (centres unmarked) | Trypanosoma cruzi | reporter mRNA translation, inhibitor, refers to: capped polyadenylated Renilla luciferase mRNA | cell-free extract | concentration not given | reference: control RNA | relative translation | 105% |
| CN1CC[C@@H](COc2cnc(C#N)cc2-c2ccn3nc(NC(=O)C4CC4)cc3c2)C1 | BRSK2 | enzyme activity, inhibitor | – | 1 µM | – | inhibition | 5% |
| NC(=O)C[C@H]1CCc2sc3ncnc(O[C@H]4CC[C@H](N5CCOCC5)CC4)c3c21 | BRSK2 | enzyme activity, inhibitor | – | 10 µM | – | inhibition | 2% |
| Cc1nc2c(F)cc(-c3nc(Nc4ccc(CNC(=O)CCCCCCC(=O)NO)cc4)ncc3F)cc2n1C(C)C | BRSK2 | enzyme activity, inhibitor | – | 1 µM | – | inhibition | 80% |
| Cc1cccc(-c2ccc3nc(NC(=O)C4CCCO4)nn3c2)c1 (centres unmarked) | BRSK2 | enzyme activity, Dundee kinase panel | – | 10 µM | – | remaining activity | 71% |
| CNC1C[S+]2CC[S+]3CC[S+](C1)[Ru-4]321([N]=C=S)[n]2c3ccc(OC)cc3c3c4c(c5cc(F)c[n+]1c5c32)C(=O)NC4=O (centres unmarked) | BRSK2 | KinomeScan | – | 0.1 µM | reference: untreated | remaining binding | 62% |
| Cc1ccc(-c2c(/C=C(\C#N)C(=O)NC(C)C)n(CCCO)c3ncnc(N)c23)cc1 | BRSK2 | cell-free assay, competition with immobilised ligand | – | 1 µM | – | remaining binding | 100% |
| Cc1cc(Cl)c(OCCOCCN2CCN(C)CC2)c(Br)c1.O=C(O)C(=O)O | Trypanosoma cruzi | reporter mRNA translation, inhibitor, refers to: capped polyadenylated Renilla luciferase mRNA | cell-free extract | concentration not given | reference: control RNA | relative translation | 115% |
| CCn1cc(C(=O)O)c(=O)c2c(N)c(F)c(NC3CCCCC3)cc21 | BRSK2 | kinase activity | – | 0.1 µM, together with: ATP at Km | – | inhibition | 7.7% |
| C=CC(=O)N1CCc2ccc(-n3c(=O)ccc4cnc5ccc(-c6cnn(C)c6)cc5c43)cc21 | BRSK2 | KINOMEscan | – | 1 µM | reference: DMSO control | remaining binding | 100% |

For quick reference, copied from above:
| SMILES | tested on | assay | system | setting | how to read | measurement | result |
| --- | --- | --- | --- | --- | --- | --- | --- |
| Fc1ccccc1N1CCN(C2CCCN(Cc3cccc(C(F)(F)F)c3)C2)CC1 (centres unmarked) | Trypanosoma cruzi | reporter mRNA translation, inhibitor, refers to: capped polyadenylated Renilla luciferase mRNA | cell-free extract | concentration not given | reference: control RNA | relative translation | 105% |
| CN1CC[C@@H](COc2cnc(C#N)cc2-c2ccn3nc(NC(=O)C4CC4)cc3c2)C1 | BRSK2 | enzyme activity, inhibitor | – | 1 µM | – | inhibition | 5% |
